Measured values from different studies.
Lines come from different studies, so protocols differ.
Organism: Klebsiella pneumoniae

Compound | assay | system | conditions | MIC
CC[C@H]1OC(=O)[C@H](C)[C@@H](O[C@H]2C[C@@](C)(OC)[C@@H](O)[C@H](C)O2)[C@H](C)[C@@H](O[C@@H]2O[C@H](C)C[C@H](N(C)C)[C@H]2O)[C@](C)(O)C[C@@H](C)C(=O)[C@H](C)[C@@H](O)[C@]1(C)O | broth microdilution | ATCC 43816 acrAB overexpressor | with: colistin 0.5 mg/L | 64 µg/mL
CC[C@H](C)CCCCC(=O)N[C@@H](CCN)C(=O)N[C@H](C(=O)N[C@@H](CCN)C(=O)N[C@H]1CCNC(=O)[C@H]([C@@H](C)O)NC(=O)[C@H](CCN)NC(=O)[C@H](CCN)NC(=O)[C@H](CC(C)C)NC(=O)[C@@H](Cc2ccccc2)NC(=O)[C@H](CCN)NC1=O)[C@@H](C)O | broth microdilution | NCTC 5055 | 24 h, 37 °C | 4 µg/mL
C[C@@H](O)[C@H]1C(=O)N2C(C(=O)O)=C(S[C@@H]3CN[C@H](C(=O)N(C)C)C3)[C@H](C)[C@H]12 | – | ATCC 700603 ESBL SHV-18 | – | 0.03 µg/mL
CC[C@H](C)CCCCC(=O)N[C@@H](CCN)C(=O)N[C@H](C(=O)N[C@@H](CCN)C(=O)N[C@H]1CCNC(=O)[C@H]([C@@H](C)O)NC(=O)[C@H](CCN)NC(=O)[C@H](CCN)NC(=O)[C@H](CC(C)C)NC(=O)[C@@H](CC(C)C)NC(=O)[C@H](CCN)NC1=O)[C@@H](C)O | broth microdilution | ATCC 43816 acrAB overexpressor, cation-adjusted MHB | – | 1 µg/mL
CC[C@H](C)[C@H](NC(=O)[C@H](Cc1ccccc1)NC(=O)[C@@H](NC(=O)[C@H](Cc1ccccc1)NC(=O)[C@@H]1CCCN1C(=O)[C@@H](NC(=O)[C@H](C)N)[C@@H](C)CC)[C@@H](C)CC)C(=O)N[C@@H](Cc1c[nH]c2ccccc12)C(=O)N[C@@H](CCCNC(=N)N)C(=O)N[C@@H](CC(C)C)C(=O)N[C@@H](CC(C)C)C(=O)N[C@@H](CCCNC(=N)N)C(=O)N[C@@H](CCCCN)C(=O)NCC(N)=O | broth microdilution | ATCC 700603 | 18 h, 37 °C | 15 µM
CC(N)C(O)CCCCCCCCCCCCCCC(=O)CCCCCCCC(O)C(C)N (stereo not drawn) | resazurin | – | – | 23.8 µM
NC(=O)[C@@H]1CC[C@@H]2CN1C(=O)N2OS(=O)(=O)O | broth microdilution | ATCC 1706, ESBL, NDM | compound alone | 16 µg/mL
CC(=O)N[C@@H](CCCCN)C(=O)N[C@@H](CCCCN)C(=O)N[C@@H](CC(C)C)C(=O)N[C@@H](CC(C)C)C(=O)N[C@@H](CCCCN)C(=O)N[C@@H](CC(C)C)C(=O)N[C@@H](CC(C)C)C(=O)N[C@@H](CCCCN)C(=O)N[C@@H](CCCCN)C(=O)N1CCC[C@H]1C(=O)N[C@@H](CC(C)C)C(=O)N[C@@H](CCCCN)C(=O)N[C@@H](C)C(=O)N[C@@H](CC(C)C)C(=O)N[C@@H](CCCCN)C(N)=O | broth microdilution | ATCC 700603 | 18 h, 37 °C, compound alone | > 80 µM
C[C@@H](O)[C@H]1C(=O)N2C(C(=O)O)=C(SCCN=CN)C[C@H]12 | – | NCCP 15866 carbapenem-resistant, Mueller-Hinton broth | 16 h, 37 °C | 64 µM
CC(=O)N[C@@H](CCCCN)C(=O)N[C@@H](CCCCN)C(=O)N[C@@H](CC(C)C)C(=O)N[C@@H](CC(C)C)C(=O)N[C@@H](CCCCN)C(=O)N[C@@H](CC(C)C)C(=O)N[C@@H](CC(C)C)C(=O)N[C@@H](CCCCN)C(=O)N[C@@H](CCCCN)C(=O)N1CCC[C@H]1C(=O)N[C@@H](CC(C)C)C(=O)N[C@@H](CCCCN)C(=O)N[C@@H](CC(C)C)C(=O)N[C@@H](C)C(=O)N[C@@H](CCCCN)C(N)=O | broth microdilution | ATCC 700603 | 18 h, 37 °C, compound alone | > 80 µM
CN(C)[C@@H]1C(O)=C(C(N)=O)C(=O)[C@@]2(O)C(O)=C3C(=O)c4c(O)cnc(-c5ccccc5)c4C[C@H]3C[C@@H]12.Cl.Cl | – | tet(A)-carrying | – | > 32 µg/mL
COc1ccc2ccc(O)c(/C=N/[C@H]3CCCC[C@H]3/N=C/c3ccc(OCCN4CCCCC4)cc3O)c2c1 | bacterial growth, broth microdilution | carbapenem-resistant | – | > 40 µM
CC(=O)N[C@@H](CCCCN)C(=O)N[C@@H](CCCCN)C(=O)N[C@@H](CC(C)C)C(=O)N[C@@H](CC(C)C)C(=O)N[C@@H](CCCCN)C(=O)N[C@@H](CC(C)C)C(=O)N[C@@H](CC(C)C)C(=O)N[C@@H](CCCCN)C(=O)N[C@@H](CCCCN)C(=O)N1CCC[C@H]1C(=O)N[C@@H](CC(C)C)C(=O)N[C@@H](CCCCN)C(=O)N[C@@H](CC(C)C)C(=O)N[C@@H](CC(C)C)C(=O)N[C@@H](C)C(N)=O | broth microdilution | ATCC 700603 | 18 h, 37 °C, compound alone | > 80 µM
NCC[C@H](O)C(=O)N[C@@H]1C[C@H](N)[C@@H](O[C@H]2O[C@H](CN)[C@@H](O)[C@H](O)[C@H]2O)[C@H](O)[C@H]1O[C@H]1O[C@H](CO)[C@@H](O)[C@H](N)[C@H]1O | broth microdilution | KPC-127 producing | – | > 128 µg/mL
CC[C@H](C)[C@H](NC(=O)[C@H](CC(C)C)NC(=O)[C@@H](NC(=O)[C@H](Cc1ccc(O)cc1)NC(=O)[C@H](CO)NC(=O)CNC(=O)[C@H](CCCNC(=N)N)NC(=O)[C@H](CCCNC(=N)N)NC(=O)[C@H](CCCNC(=N)N)NC(=O)[C@@H]1CCCN1C(=O)[C@H](CCCCN)NC(=O)[C@H](Cc1c[nH]c2ccccc12)NC(=O)[C@@H](NC(=O)[C@H](Cc1c[nH]c2ccccc12)NC(=O)[C@H](CCCCN)NC(=O)[C@H](CCCNC(=N)N)NC(=O)[C@H](CCCNC(=N)N)NC(=O)[C@@H]1CCCN1C(=O)[C@H](CO)NC(=O)[C@H](CCCNC(=N)N)NC(=O)[C@H](CO)NC(=O)[C@H](CCCNC(=N)N)NC(=O)[C@@H](N)CCCNC(=N)N)[C@@H](C)O)[C@@H](C)O)C(=O)N[C@@H](CO)C(=O)N[C@@H](CCC(N)=O)C(=O)NCC(=O)NCC(=O)N[C@@H](CC(N)=O)C(=O)O | – | ATCC 43823 | highest concentration 50 µM | 21.8 µM
CC[C@H](C)[C@H](N)C(=O)N[C@@H](CC(C)C)C(=O)NCC(=O)N[C@@H](CCC(=O)O)C(=O)N[C@H](C(=O)N[C@@H](Cc1c[nH]c2ccccc12)C(=O)N[C@@H](CCCCN)C(=O)NCC(=O)N[C@H](C(=O)N[C@@H](CCCCN)C(=O)N[C@@H](CC(=O)O)C(=O)N[C@H](C(=O)N[C@@H](CC(C)C)C(N)=O)[C@@H](C)CC)[C@@H](C)CC)[C@@H](C)CC | broth microdilution | ATCC 27736, Mueller-Hinton broth | 16 h, 37 °C | > 100 µM
O=C(N[C@H](CO)[C@H](O)c1ccc([N+](=O)[O-])cc1)C(Cl)Cl | broth microdilution | ATCC 43816 acrAB overexpressor | with: colistin 0.5 mg/L | 4 µg/mL
CCNc1nc(Cl)c2c(c1O)C(=O)C1=C(O)[C@]3(O)C(=O)C(C(N)=O)=C(O)[C@@H](N(C)C)[C@@H]3C[C@@H]1C2.Cl.Cl.Cl | – | tet(A)-carrying | – | 32 µg/mL
CC(=O)N[C@@H](CC(C)C)C(=O)N[C@@H](CCCCN)C(=O)N[C@@H](CC(C)C)C(=O)N[C@@H](CC(C)C)C(=O)N[C@@H](CCCCN)C(=O)N[C@@H](CCCCN)C(=O)N1CCC[C@H]1C(=O)N[C@@H](CC(C)C)C(=O)N[C@@H](CCCCN)C(=O)N[C@@H](CC(C)C)C(=O)N[C@@H](CC(C)C)C(=O)N[C@@H](CCCCN)C(N)=O | broth microdilution | ATCC 700603 | 18 h, 37 °C, compound alone | > 80 µM
C[C@@H](O)[C@H]1C(=O)N2C(C(=O)O)=C(S[C@@H]3CN[C@H](C(=O)N(C)C)C3)[C@H](C)[C@H]12 | broth microdilution | KPC-127 producing | – | 4 µg/mL
CC[C@H](C)[C@H](NC(=O)[C@H](C)NC(=O)[C@H](CCCNC(=N)N)NC(=O)[C@H](CCCNC(=N)N)NC(=O)[C@H](CCCNC(=N)N)NC(=O)[C@H](CCCNC(=N)N)NC(=O)[C@H](CCCNC(=N)N)NC(=O)[C@@H](N)CCCNC(=N)N)C(=O)N[C@@H](CO)C(=O)NCC(=O)N[C@@H](CO)C(=O)N[C@@H](CC(C)C)C(=O)N[C@H](C(=O)N[C@H](C(=O)N[C@@H](CC(C)C)C(=O)N[C@@H](Cc1ccccc1)C(=O)NCC(=O)N[C@@H](Cc1ccc(O)cc1)C(N)=O)[C@@H](C)O)C(C)C | broth microdilution | ATCC 13883 | highest value reported | 4 µM
CN(C)[C@@H]1C(O)=C(C(N)=O)C(=O)[C@@]2(O)C(O)=C3C(=O)c4c(O)c(N)nc(Cl)c4C[C@H]3C[C@@H]12 | – | tet(A)-carrying | – | > 32 µg/mL
CC[C@H](C)[C@H](NC(=O)CN)C(=O)NCC(=O)N[C@@H](C)C(=O)N[C@H](C(=O)N[C@@H](CC(C)C)C(=O)N[C@@H](CCCCN)C(=O)N[C@H](C(=O)N[C@@H](CC(C)C)C(=O)N[C@H](C(=O)N[C@H](C(=O)NCC(=O)N[C@@H](CC(C)C)C(=O)N1CCC[C@H]1C(=O)N[C@@H](C)C(=O)N[C@@H](CC(C)C)C(=O)N[C@H](C(=O)N[C@@H](CO)C(=O)N[C@@H](Cc1c[nH]c2ccccc12)C(=O)N[C@H](C(=O)N[C@@H](CCCCN)C(=O)N[C@@H](CCCNC(=N)N)C(=O)N[C@@H](CCCCN)C(=O)N[C@@H](CCCNC(=N)N)C(=O)N[C@@H](CCC(N)=O)C(=O)N[C@@H](CCC(N)=O)C(N)=O)[C@@H](C)CC)[C@@H](C)CC)[C@@H](C)O)[C@@H](C)O)C(C)C)C(C)C | – | NCCP 15866 carbapenem-resistant | – | 16 µM
CC(C)C[C@H](NC(=O)[C@@H](NC(=O)[C@H](CCCNC(=N)N)NC(=O)[C@H](CCC(N)=O)NC(=O)[C@H](Cc1ccccc1)NC(=O)[C@H](Cc1ccc(O)cc1)NC(=O)[C@H](CC(N)=O)NC(=O)[C@H](Cc1c[nH]c2ccccc12)NC(=O)[C@@H](NC(=O)[C@H](CCCNC(=N)N)NC(=O)[C@H](CCCCN)NC(=O)[C@@H](N)Cc1ccccc1)C(C)C)C(C)C)C(=O)N[C@H](C(=O)N[C@@H](CCCCN)C(=O)N[C@@H](CCCCN)C(N)=O)C(C)C | broth dilution | ATCC 700603 | – | 25 µM

Repeated from above:
Compound | assay | system | conditions | MIC
NC(=O)[C@@H]1CC[C@@H]2CN1C(=O)N2OS(=O)(=O)O | broth microdilution | ATCC 1706, ESBL, NDM | compound alone | 16 µg/mL
CC(=O)N[C@@H](CCCCN)C(=O)N[C@@H](CCCCN)C(=O)N[C@@H](CC(C)C)C(=O)N[C@@H](CC(C)C)C(=O)N[C@@H](CCCCN)C(=O)N[C@@H](CC(C)C)C(=O)N[C@@H](CC(C)C)C(=O)N[C@@H](CCCCN)C(=O)N[C@@H](CCCCN)C(=O)N1CCC[C@H]1C(=O)N[C@@H](CC(C)C)C(=O)N[C@@H](CCCCN)C(=O)N[C@@H](C)C(=O)N[C@@H](CC(C)C)C(=O)N[C@@H](CCCCN)C(N)=O | broth microdilution | ATCC 700603 | 18 h, 37 °C, compound alone | > 80 µM
